{"data": "Results gathered from unrelated publications", "note": "Parts stem from different laboratories: compare values within a part only. Positions count from the first letter of the parent shown."}
{"data": "Set 1", "target": "tungstate, free oxyanion", "technique": "microfluidic competitive inhibition", "medium": "in vitro, cell-free expressed", "tested at": "not given", "setting": "derived from inhibition constants, unchanged parent 2230 nM", "reading": "lower = stronger binding", "starting sequence": "PafA, mature enzyme, eGFP fusion (Elizabethkingia meningoseptica, UniProt Q9KJX5); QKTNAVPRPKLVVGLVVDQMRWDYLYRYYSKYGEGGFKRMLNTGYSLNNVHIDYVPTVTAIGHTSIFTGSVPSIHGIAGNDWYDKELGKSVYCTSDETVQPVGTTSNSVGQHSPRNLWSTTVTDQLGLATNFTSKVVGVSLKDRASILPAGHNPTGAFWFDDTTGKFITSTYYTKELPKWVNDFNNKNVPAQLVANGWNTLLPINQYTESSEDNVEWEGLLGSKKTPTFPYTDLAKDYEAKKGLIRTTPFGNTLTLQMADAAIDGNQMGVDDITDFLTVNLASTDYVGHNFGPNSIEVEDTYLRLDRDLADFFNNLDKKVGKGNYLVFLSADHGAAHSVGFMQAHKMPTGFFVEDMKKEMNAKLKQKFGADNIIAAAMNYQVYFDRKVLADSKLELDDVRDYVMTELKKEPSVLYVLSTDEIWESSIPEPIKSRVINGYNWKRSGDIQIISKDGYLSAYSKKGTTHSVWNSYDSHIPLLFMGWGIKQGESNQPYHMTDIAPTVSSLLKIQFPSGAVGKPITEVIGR"}
{"Substitution": "L277G", "oxyanion analog dissociation constant [µM]": 2.46}
{"Substitution": "K224V", "oxyanion analog dissociation constant [µM]": 2.2}
{"Substitution": "G288A", "oxyanion analog dissociation constant [µM]": 1.35}
{"Substitution": "S223V", "oxyanion analog dissociation constant [µM]": 1.95}
{"Substitution": "T349V", "oxyanion analog dissociation constant [µM]": 1.78}
{"Substitution": "N42V", "oxyanion analog dissociation constant [µM]": 2.43}
{"data": "Set 2", "target": "RING finger protein unkempt homolog, zinc fingers 1-6, GST-SBP tag (UNK, Homo sapiens, UniProt Q9C0B0, residues 30-357)", "technique": "RNA Bind-n-Seq", "form": "RNA", "medium": "in vitro", "tested at": "not given", "setting": "RNA with constant flanks, human and mouse sites, ends assumed", "baseline": "input RNA pool", "reading": "higher = stronger binding", "constant ends, left off below": "GGGAGUUCUACAGUCCGACGAUC … CAACAGAGGAUUGAGCAUCA", "UniProt Q9C0B0, sequence (30-357, looked up)": "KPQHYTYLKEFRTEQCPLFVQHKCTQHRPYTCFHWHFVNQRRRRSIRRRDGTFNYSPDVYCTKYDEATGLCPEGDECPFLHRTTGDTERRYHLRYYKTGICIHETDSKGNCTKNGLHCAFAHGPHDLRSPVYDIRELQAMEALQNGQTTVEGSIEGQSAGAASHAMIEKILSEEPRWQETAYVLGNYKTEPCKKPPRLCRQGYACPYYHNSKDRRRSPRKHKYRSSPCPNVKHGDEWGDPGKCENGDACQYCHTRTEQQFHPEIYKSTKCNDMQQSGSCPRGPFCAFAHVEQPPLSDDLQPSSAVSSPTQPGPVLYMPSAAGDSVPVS"}
{"Oligonucleotide": "UUCCCCCUCCCAGUACUAGUUAAUUUUGAGUAAUUGUAUUGUCAGAAAAGUGAUUAGUACUAUUUUUUUUUGUUGUUUCAAAAAAAAAAUUUUUGUGUGUGUGUGUUUUUUUUUUUUUUU", "bound/input enrichment": "1.28 ratio"}
{"Oligonucleotide": "UGGAAACUGAUUUAAGAAGGAAGUACUUGACCCAGGUGGAUAUAUUGCCUCAAGAUGAAGAGUAUUUUAAGGAUGCCAGGAUGCUAUCUCUGCAAAGAGCUCUGGUGGUCCUGAAGUAUC", "bound/input enrichment": "0.169 ratio"}
{"Oligonucleotide": "CUCUAUUUUUUUACUAUGGCUGGCAGUGUAUGGUGGGUAAUUCUUACCAUCACAUGGUUUUUAGCAGCUGUGCCAAAGUGGGGUAGUGAAGCUAUUGAGAAGAAAGCAUUGCUGUUUCAC", "bound/input enrichment": "0.336 ratio"}
{"Oligonucleotide": "UCCUGGUUUGAUUAUUGUGAUCAGCUCAUUAAGGAAGCCCAAAAGACUGCUGCUGUUGCUCUUGCCAAAGCUGUUCAUGAAAGAUUUUUCAUUGGUGUUAUGGAACCUCAAUUAAUGCAA", "bound/input enrichment": "0.265 ratio"}
{"Oligonucleotide": "ACCCCCUUGACCCCCUACCUUUGAAGAGGCUUCGUGCAGGACUUUGAUGCUUGGGGUGUUCCGUGUUGACUCCCAGGUGGGCCUGGCUGCCCACUGCCCAUUCCUCUCAUAUUGGCACAU", "bound/input enrichment": "0.131 ratio"}
{"Oligonucleotide": "UGCAUUCGCAAAGCAAAGAUUUCCGCUGUUGCUUUCCGGAAAGCCUUUUGCCACCACAAGCUAGUAGAACUUGAUGCCACGGGUGUGAAUGCUGACAUCACUAUCACAGACAUCAUAAGU", "bound/input enrichment": "0.11 ratio"}
{"Oligonucleotide": "UAAAUUGAGGGCACUUGUACCCUCCCUGUGCCCCCAGAAGGUUCUUGGAGAGAAGUGCAAGAAUUUGUGAACACGGCGGUGGAGGGCGGGUGGAUGGCCAUGGGCUGAGCCUCCGUAUCA", "bound/input enrichment": "0.193 ratio"}
{"Oligonucleotide": "UUGAAGUACAAUCAAGCUACACAGACCUUCCACCAGUGGCGAGAUGCUAGACAGGUGUAUGGUCUCAACUUUGGCAGCAAAGAGGAUGCCAAUGUCUUCGCAAGUGCCAUGAUGCAUGCC", "bound/input enrichment": "0.13 ratio"}
{"data": "Set 3", "target": "CCNA2, cyclin fold, Cln2 fusion (human)", "technique": "yeast growth competition, sequencing", "medium": "yeast", "setting": "strong parent motif", "baseline": "not given", "reading": "higher = stronger binding", "starting sequence": "viral docking peptide; KKAKRRLFTISDS; partner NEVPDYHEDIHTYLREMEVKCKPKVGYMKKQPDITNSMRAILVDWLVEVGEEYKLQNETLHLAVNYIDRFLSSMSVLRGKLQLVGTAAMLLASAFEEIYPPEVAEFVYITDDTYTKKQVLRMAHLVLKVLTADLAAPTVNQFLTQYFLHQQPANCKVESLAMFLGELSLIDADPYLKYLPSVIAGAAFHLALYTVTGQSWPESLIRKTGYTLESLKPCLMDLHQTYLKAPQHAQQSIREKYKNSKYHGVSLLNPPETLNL"}
{"Substitution": "T9A", "normalised enrichment score": 5.17}
{"Substitution": "S11A", "normalised enrichment score": 5.82}
{"Substitution": "K2A", "normalised enrichment score": 3.85}
{"Substitution": "F8A", "normalised enrichment score": 0.782}
{"Substitution": "S13A", "normalised enrichment score": 4.86}
{"Substitution": "R5K", "normalised enrichment score": 3.64}
{"Substitution": "K1A", "normalised enrichment score": 4.65}
{"data": "Set 4", "target": "RNA binding protein fox-1 homolog 2, RRM domain, GST-SBP tag (RBFOX2, Homo sapiens, UniProt O43251-10, residues 100-194)", "technique": "RNA Bind-n-Seq", "form": "RNA", "medium": "in vitro", "tested at": "365 nM", "setting": "natural RNA segment, single round, ends assumed", "baseline": "no-protein control", "reading": "higher = stronger binding", "constant ends, left off below": "GGGAGUUCUACAGUCCGACGAUC … UGGAAUUCUCGGGUGCCAA", "Target sequence (chain)": "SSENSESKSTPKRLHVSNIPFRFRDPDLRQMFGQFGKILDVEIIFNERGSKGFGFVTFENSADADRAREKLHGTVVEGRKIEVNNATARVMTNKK"}
{"Oligonucleotide": "ACUCCCUUGCUGGGCACUACCCCCCCACCUGAUACCCUGCUGUGUAGUCUGACACUGGAGUCCCCAACCCACCCCAUUCCUGCCCUCAUCCUCAGCCCAUCAUUUGUGAA", "RBNS enrichment (R)": 1.08}
{"Oligonucleotide": "CAAGAUCUGCUCUCUGUCUAUGGUAUUACACAGGGAAAGCUGUGACUGCAGGAUCAGUCUCAUUCUUCUACUAGGUGCAUGGACUCCCUUCCCACUGACUUACACUCGUC", "RBNS enrichment (R)": 0.574}
{"Oligonucleotide": "CUGCUGCACCAACCCAGCCGCUGCCCGGCGCCCUCUGUCCUGACUUCAGGGGCUGCCCGCUCCCAGUGUCUUCCUGUGGGGGAAGAGCACAGCCCUCCCGCCCCUUCCCC", "RBNS enrichment (R)": 0.913}
{"Oligonucleotide": "GAGCUUCAUGUAGGUUUAAAAGUGUAUUCUGAGCCUGUAGAUGAUUAAUCAGGUUUUUAUUCAAUCAUAUAAAUGUAUUCCUUUGUAAUCAUUUUUGUUUAACUGAGGAU", "RBNS enrichment (R)": 0.708}
{"Oligonucleotide": "CCGCUCCCUUCUCCCCACCCAAACCCCACACUGCAGCAGGCAGGCCAGGGCGGGUGUGGGGCUGGCUGAGAGGAUCAAUUUUAGAGUCUUUAUUCAGGGAGUGAGACAUG", "RBNS enrichment (R)": 0.321}
{"Oligonucleotide": "GUAUGUCAUCCACUGCUUGGGGAAUUUUCCUCAGGUACCUACACACCCUGAUAUUUGAAACCAAAACUCACUGUUCUGCCUCAAUUUGUAUUUUAUUUUGAAAUAAACAU", "RBNS enrichment (R)": 0.453}
{"Oligonucleotide": "AAAAUUGUAUAUAUUUUUACAGAAAGUCUAUUUCUUUGAAACGAAGGAAGUAUCGAAUUUACAUUAGUUUUUUUCAUACCCUUUUGAACUUUGCAACUUCCGUAAUUAGG", "RBNS enrichment (R)": 0.379}
{"Oligonucleotide": "CUCCCAGCUCCUGACUGUGGCAGCUGUGGUAGUGGCAGUACCAGAAUUAGCCGCUUCUUUUCCUCCCAACCUCUUAGCCGGGUAGAGAGGCAUUCCCAGGGGCUCCUGUC", "RBNS enrichment (R)": 0.465}
{"note": "A few entries again (set 3):"}
{"Substitution": "S13A", "normalised enrichment score": 4.86}
{"Substitution": "R5K", "normalised enrichment score": 3.64}
